Published values of several laboratories.
Compare with care: the assays were run in different laboratories.

`CC(=O)O[C@H]1C(=O)[C@@]2(C)[C@H]([C@H](OC(=O)c3ccccc3)[C@]3(O)C[C@H](OC(=O)[C@H](O)[C@@H](NC(=O)c4ccccc4)c4ccccc4)C(C)=C1C3(C)C)[C@]1(OC(C)=O)CO[C@@H]1C[C@@H]2O` — result for “adverse event incidence”: 6% (item: Hypophosphataemia; patients with advanced solid tumours; intravenous, dose not given, grade 3 and 4, possibly related to drug).
`Cc1ccc(Sc2ccccc2N2CCNCC2)c(C)c1`: “adverse event incidence” 0% (TEAE Diarrhea; elderly men; oral, 10 mg single dose).
Under “adverse event incidence”, `FC(F)(F)c1ccc(CNc2ccc(Cc3c[nH]c4ncc(Cl)cc34)cn2)cn1` is recorded as 0% (item: blood creatine phosphokinase increased; patients with advanced solid tumours; oral, dose not given, grade 3 and 4, possibly related to drug).
`Cc1c(C(=O)O)ccc2c3n(nc12)[C@@H]1[C@H](C3)N(CC2CC2)[C@@]2(C(=O)Nc3cc(Cl)ccc32)[C@H]1c1cccc(Cl)c1F`: “adverse event incidence” 55.6% (phase Ia trial, item: Vomiting; cancer patients; oral, dose not given, all patients all grades).
`O=C1CCc2ccc(OCCCCN3CCN(c4cccc(Cl)c4Cl)CC3)cc2N1`: “adverse event incidence” 14% (item: Rigidity; patients, CYP2D6 ultrarapid metabolizers; dose not given, long-acting oral or depot).
For `CC(C)n1c(Nc2cccnc2)nc2cnc(Nc3ccc(N4CCN(C)CC4)cc3)nc21`, “adverse event incidence” read 7.1% (item: Dizziness; healthy male subjects; oral, 100 mg, added: itraconazole).
Under “adverse event incidence”, `CC[C@H](C)CCCCC(=O)N[C@@H](CCN)C(=O)N[C@H](C(=O)N[C@@H](CCN)C(=O)N[C@H]1CCNC(=O)[C@H]([C@@H](C)O)NC(=O)[C@H](CCN)NC(=O)[C@H](CCN)NC(=O)[C@H](CC(C)C)NC(=O)[C@@H](Cc2ccccc2)NC(=O)[C@H](CCN)NC1=O)[C@@H](C)O` is recorded as 0% (item: dry mouth; long-term IHD patients; intravenous, 0.75 mg/kg).
`CNC(=O)c1ccc(-c2cnc3ncc(Cc4ccc5ncccc5c4)n3n2)cc1F`: “adverse event incidence” 0% (phase 1 clinical trial, item: blood creatinine increased; other expansion cohort; oral, 600 mg twice daily, grade 3 or 4).

For quick reference, copied from above:
`CNC(=O)c1ccc(-c2cnc3ncc(Cc4ccc5ncccc5c4)n3n2)cc1F`: “adverse event incidence” 0% (phase 1 clinical trial, item: blood creatinine increased; other expansion cohort; oral, 600 mg twice daily, grade 3 or 4).
